Measurements from different studies.
Compare with care: the assays were run in different laboratories.
MAP3K7 with TAB1: Mitogen-activated protein kinase kinase kinase 7, with TAB1 (MAP3K7, Homo sapiens, UniProt O43318)
Chain of UniProt O43318 (whole entry, looked up): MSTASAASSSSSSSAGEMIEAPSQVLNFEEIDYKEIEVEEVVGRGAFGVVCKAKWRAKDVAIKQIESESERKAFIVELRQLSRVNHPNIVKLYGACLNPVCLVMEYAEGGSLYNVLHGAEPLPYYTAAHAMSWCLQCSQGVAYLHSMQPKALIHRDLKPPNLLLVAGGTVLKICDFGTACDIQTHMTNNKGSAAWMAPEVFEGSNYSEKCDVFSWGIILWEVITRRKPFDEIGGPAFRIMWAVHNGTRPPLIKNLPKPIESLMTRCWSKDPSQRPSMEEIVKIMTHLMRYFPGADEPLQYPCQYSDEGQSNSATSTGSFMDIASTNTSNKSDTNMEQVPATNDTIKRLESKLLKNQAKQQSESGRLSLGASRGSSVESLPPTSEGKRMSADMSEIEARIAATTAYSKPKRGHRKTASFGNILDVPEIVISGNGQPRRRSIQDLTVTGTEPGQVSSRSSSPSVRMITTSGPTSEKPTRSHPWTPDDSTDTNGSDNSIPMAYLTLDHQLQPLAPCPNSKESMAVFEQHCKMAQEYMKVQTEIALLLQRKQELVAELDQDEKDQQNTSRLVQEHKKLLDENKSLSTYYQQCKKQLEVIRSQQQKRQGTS
MAP3K7: Mitogen-activated protein kinase kinase kinase 7 (MAP3K7, Homo sapiens, UniProt O43318)

Compound = O=C(CSc1nc2nccnc2c(=O)n1CCc1ccccc1)Nc1nccs1; target = MAP3K7 with TAB1; conditions = 10 µM; endpoint = inhibition; result = -10%
Compound = O=C1NC(=O)/C(=C/c2ccc(-c3ccc(F)cc3O)o2)S1; target = MAP3K7; test = enzyme activity; conditions = 10 µM; endpoint = remaining activity; result = 48%
Compound = Cc1cc(Nc2cc(N3CCN(C)CC3)nc(Sc3ccc(NC(=O)C4CC4)cc3)n2)[nH]n1; target = MAP3K7; test = kinase activity, KinaseProfiler; conditions = 0.03 µM, species human; how to read = baseline: control; endpoint = remaining activity; result = 93%
Compound = CCOC(=O)Oc1cc(OC)cc2c1C(=O)O[C@@H](C)C/C=C/C(=O)[C@@H](O)[C@@H](OC(=O)OCC)C[C@H]1O[C@H]21; target = MAP3K7 with TAB1; test = kinase activity, Kinase-Glo luminescence; conditions = concentration not given; endpoint = inhibition; result = inactive
Compound = Cn1cc(-c2cnc3ccc(NC(=O)Nc4ccc(F)c(Br)c4)cc3n2)cn1; target = MAP3K7; test = kinase binding, KiNativ profiling, item: Lys2 peptide; test system = PANC-1 lysate; conditions = 1.25 µM; endpoint = inhibition; result = 0.5%
Compound = COc1cc(-c2cc(-c3ccc(N4CCNCC4)cc3)cnc2C)cc(OC)c1OC; target = MAP3K7 with TAB1; test = kinome profiling; conditions = 1 µM; endpoint = inhibition; result = 2%
Compound = CCN1CCN(Cc2ccc(NC(=O)c3ccc(C)c(Oc4ccnc5[nH]ccc45)c3)cc2C(F)(F)F)CC1; target = MAP3K7; test system = A-375; conditions = concentration not given; endpoint = inhibition; result = > 98%
Compound = CCOC(=O)O[C@H]1C[C@H]2O[C@@H]2c2cc(OC)cc(O)c2C(=O)O[C@@H](C)C/C=C/C(=O)[C@H]1O; target = MAP3K7 with TAB1; test = kinase activity, Kinase-Glo luminescence; conditions = concentration not given; endpoint = inhibition; result = inactive
Compound = CC(C)(C)c1nc2c(s1)c1nc(N)ncc1c1ccc(NS(=O)(=O)c3c(F)cccc3F)c(F)c12; target = MAP3K7 with TAB1; test = kinase activity, radiometric 33PanQinase; conditions = 1 µM; how to read = baseline: DMSO; endpoint = remaining activity; result = 86%
Compound = CS(=O)(=O)Nc1cccc(-c2csc(NC(=O)CSc3nc4nccnc4c(=O)n3CCc3ccccc3)n2)c1; target = MAP3K7 with TAB1; conditions = 10 µM; endpoint = inhibition; result = -12%
Compound = CNc1ncc2c(/C=C/C(=O)N3CCC(OC)CC3)nn(Cc3cccc(C(F)(F)F)c3)c2n1; target = MAP3K7 with TAB1; test = inhibitor; conditions = 1 µM; how to read = baseline: control; endpoint = remaining activity; result = 92%
Compound = COc1cc(F)ccc1-c1ncnc(Nc2cccc(C[S@](C)(=N)=O)c2)n1; target = MAP3K7; test = kinase activity; conditions = 10 µM, with: 10 µM ATP; endpoint = remaining activity; result = 82%

A few entries again:
Compound = CNc1ncc2c(/C=C/C(=O)N3CCC(OC)CC3)nn(Cc3cccc(C(F)(F)F)c3)c2n1; target = MAP3K7 with TAB1; test = inhibitor; conditions = 1 µM; how to read = baseline: control; endpoint = remaining activity; result = 92%
